Measurements collected from several papers.
Lines come from different studies, so protocols differ. Several values in a cell are separate wells, animals, samples, runs or records. ± marks the error that the study gave.

Oc1ccc(CSCc2ccc(O)cc2)cc1 gave a body weight of 35.5 ± 1.01 g (ICR mice male; oral, 3000 mg/kg, day 8, acute toxicity).
With CC(C)[C@@H]1NC(=O)CNC(=O)[C@H](CC(N)=O)NC(=O)[C@H](CCCNC(=N)N)NC(=O)[C@H](Cc2ccc(O)cc2)NC(=O)[C@H](C(C)C)NC(=O)[C@@H](NC(=O)[C@@H](NC(=O)[C@H](CC(N)=O)NC(=O)[C@H](Cc2c[nH]c3ccccc23)NC(=O)[C@H](C)NC(=O)[C@H](Cc2ccccc2)NC(=O)CN)C(C)C)CSSC[C@@H](C(=O)N[C@@H](Cc2cnc[nH]2)C(=O)N[C@@H](CCCNC(=N)N)C(=O)N[C@@H](CCCNC(=N)N)C(=O)N[C@@H](C)C(=O)N[C@@H](CC(N)=O)C(N)=O)NC(=O)[C@H](C(C)C)NC(=O)[C@H](CCCNC(=N)N)NC1=O the lachrymation score was 0 (ICR mouse; ip, 10 mg/kg; direction not given).
Clc1ccc(-c2ccccc2)cc1 has a gamma-glutamyltransferase of 0.3 ± 0.6 U/L (Sprague-Dawley rats, female, serum; inhalation, 23 µg/rat, 1 h after exposure).
Brc1ccc(Oc2cc(Br)c(Br)cc2Br)c(Br)c1: “dose fraction in permeate” 17.8% (ultrafiltration; cow milk whey; 2000 nM nominal in whole milk).
The Vmax of c1ccc2cc3c(ccc4ccccc43)cc2c1 is reported as 22.4 pmol/min/mg (metabolism; pooled human liver microsomes; pH 7.4).
For C[C@@H]1OC(=O)NN=C1c1ccc(-c2ccc(F)cc2)c(C(F)(F)F)c1, “patients with adverse event” read 40% (phase I trial, item: Anaemia all grades; human patients; dose not given, all dose groups).
COc1ncnn2ccc(-c3cnc4nc(C)n(Cc5nnc([C@@H](C)F)o5)c4c3)c12 — result for “incidence of grade 1 nausea”: 0% (human patients; oral, dose not given).
CN1CC[C@@H](c2c(O)cc(O)c3c(=O)cc(-c4ccc(C(F)(F)F)cc4Cl)oc23)[C@@H]1CO: “patients with adverse event” 0% (item: Vomiting; B-cell malignancies; oral, 100 mg, intermittent dosing).
For C[C@]1(CO)Cc2ncn(-c3ccc(C#N)c(Cl)c3)c2C(=O)O1, “subjects with drug-related fatigue” read 0% (human; 3 mg multiple doses, fasted).
Under “incidence of breast disorders”, CC(C)c1nc(N(C)S(C)(=O)=O)nc(-c2ccc(F)cc2)c1/C=C/[C@@H](O)C[C@@H](O)CC(=O)O is recorded as 3.6% (healthy human subjects; oral, dose not given, study CL-0537 safety set).
With C[C@@H]1NC(=O)[C@H](CCCCNC(=O)CO/N=C/C(=O)NCCCC[C@@H]2NC(=O)[C@@H](Cc3ccccc3)NC(=O)[C@H](CC(=O)O)NC(=O)CNC(=O)[C@H](CCCNC(=N)N)NC2=O)NC(=O)CNC(=O)[C@@H]2CCCN2C(=O)[C@H](CCCCNC(=O)CO/N=C/C(=O)NCCCC[C@@H]2NC(=O)[C@@H](Cc3ccccc3)NC(=O)[C@H](CC(=O)O)NC(=O)CNC(=O)[C@H](CCCNC(=N)N)NC2=O)NC(=O)[C@H](CCCCNC(=O)CCNC(=O)CCNC(=O)CCNC(=O)[C@H](CCCCN)NC(=O)[C@H](Cc2ccccc2)NC(=O)CNC(=O)CN2CCCNCCNCCCNCC2)NC(=O)[C@H](CCCCNC(=O)CO/N=C/C(=O)NCCCC[C@@H]2NC(=O)[C@@H](Cc3ccccc3)NC(=O)[C@H](CC(=O)O)NC(=O)CNC(=O)[C@H](CCCNC(=N)N)NC2=O)NC(=O)CNC(=O)[C@@H]2CCCN2C(=O)[C@H](CCCCNC(=O)CO/N=C/C(=O)NCCCC[C@@H]2NC(=O)[C@@H](Cc3ccccc3)NC(=O)[C@H](CC(=O)O)NC(=O)CNC(=O)[C@H](CCCNC(=N)N)NC2=O)NC1=O [copper-64 labelled] the tissue uptake was 1.13 ± 0.13 %ID/g (normal mice, heart; intravenous, 0.74 MBq, 24 h post-injection).
The hemolysis of CC(C)C[C@H](NC(=O)[C@H](C)NC(=O)[C@@H](NC(=O)[C@H](CCCNC(=N)N)NC(=O)[C@H](CC(C)C)NC(=O)[C@H](Cc1c[nH]c2ccccc12)NC(=O)[C@@H]1CCCN1C(=O)[C@@H](N)CCCCN)C(C)C)C(=O)N[C@@H](CS)C(=O)N1CCC[C@H]1C(=O)NCC(=O)O is reported as 0.88% and 0.91% and 1.32% (sheep red blood cells; 512 µM, 1 h, 37 °C).
Under “T-wave abnormality incidence”, COc1cc2c(Oc3ccc4[nH]c(C)cc4c3F)ccnc2cc1OCC1(N)CC1 is recorded as 50% (paediatric refractory sarcoma patients; 10 mg).
Under “subjects with Dysmenorrhoea adverse event”, O=C(Nc1ccccc1)C1CCN(C(=O)Oc2cccnc2)CC1 is recorded as 14.3% (adverse event reporting; healthy women; oral, 60 mg, 7 days).
The fetal accumulation of CCCC1CCC(C2CCC(c3ccc(F)c(F)c3)CC2)CC1 (stereo not drawn) is reported as 0.163 ± 0.111 ng/g (rat, fetus; 10 ng/mL in perfusate, low dose, mixture of 21 LCMs).
CO[C@H]1C[C@@H]2CC[C@@H](C)[C@@](O)(O2)C(=O)C(=O)N2CCCC[C@H]2C(=O)O[C@H]([C@H](C)C[C@@H]2CC[C@@H](OC(=O)NCCOCCOCCOCCOCCOCCOCCOCCOCCC(=O)N3CCc4cc(Cn5nc(-c6ccc7oc(N)nc7c6)c6c(N)ncnc65)ccc4C3)[C@H](OC)C2)C[C@@H](O)[C@H](C)/C=C(\C)[C@@H](O)[C@@H](OC)C(=O)[C@H](C)C[C@H](C)/C=C/C=C/C=C/1C has a TRAE incidence of 75% (phase 1 dose escalation, item: mucositis; advanced solid tumour patients; intravenous, 16 mg weekly, any grade).
Fc1ccc([C@@H]2CCNC[C@H]2COc2ccc3c(c2)OCO3)cc1: “List of Complaints score” 0 score (item: Freezing; healthy volunteers; oral, dose not given, given -1 h relative to LSD, added: LSD; direction not given).
CCN1CCN(Cc2ccc(Nc3ncc(F)c(-c4cc(F)c5nc6n(c5c4)[C@H](C)CCC6)n3)nc2)CC1: “Proteinuria incidence, any grade” 37.5% (advanced solid tumour patients; dose not given, Phase Ia monotherapy).
CCCCCCCCCCCCCCCC(=O)N[C@@H](CCC(=O)NCCCC[C@H](NC(=O)[C@H](CC(=O)O)NC(=O)[C@H](CO)NC(=O)[C@@H](NC(=O)[C@H](Cc1ccccc1)NC(=O)[C@@H](NC(=O)CNC(=O)[C@H](CCC(N)=O)NC(=O)[C@H](CO)NC(=O)[C@@H](N)Cc1c[nH]cn1)[C@@H](C)O)[C@@H](C)O)C(=O)N[C@@H](CO)C(=O)N[C@@H](CCC(=O)O)C(=O)N[C@@H](Cc1ccc(O)cc1)C(=O)N[C@@H](CC(C)C)C(=O)N[C@@H](CC(=O)O)C(=O)N[C@@H](CO)C(=O)N[C@@H](CCC(=O)O)C(=O)N[C@@H](CCCNC(=N)N)C(=O)N[C@@H](C)C(=O)N[C@@H](CCCNC(=N)N)C(=O)N[C@@H](CC(=O)O)C(=O)N[C@@H](Cc1ccccc1)C(=O)N[C@H](C(=O)N[C@@H](C)C(=O)N[C@@H](Cc1c[nH]c2ccccc12)C(=O)N[C@@H](CC(C)C)C(=O)N[C@@H](CCC(=O)O)C(=O)N[C@@H](C)C(=O)NCC(=O)NCC(=O)O)C(C)C)C(=O)O — result for “treatment-related adverse events”: 0% (item: Hyperglycaemia; humans CrCl 20 to 30 mL/min; subcutaneous, 100 µg single dose).
For [O-][S+]1CCc2nc(N3CCC(c4ncc(Cl)cn4)CC3)nc(NC3(CO)CCC3)c21 (stereo not drawn), “subjects with adverse events” read 20% (phase I trial, item: nervous system disorders; idiopathic pulmonary fibrosis patients; 18 mg twice daily).
For CC(=O)c1c(C)c2cnc(Nc3ccc(C4CCN(CCS(C)(=O)=O)CC4)cn3)nc2n(C2CCCC2)c1=O, the AUC(0-inf) was 646 ng·h/mL (human, dose-escalation trial, plasma; oral, 25 mg twice daily, day 1, single dose).
C=CC(=O)N1CC[C@H](n2nc(C#Cc3cc(OC)cc(OC)c3)c3c(N)ncnc32)C1: “adverse drug reaction incidence” 0% (patients with advanced solid tumours; oral, dose not given, Dysgeusia, any grade, QD, added: ferric citrate hydrate).
CC(=O)NCC(=O)NCC(=O)N[C@H](C(=O)N[C@@H](Cc1ccc(O)cc1)C(=O)N[C@@H](CO)C(=O)N[C@H]1CSSC[C@@H](C(=O)N[C@@H](CCCNC(=N)N)C(=O)N2CCC[C@H]2C(=O)N[C@@H](CCC(N)=O)C(=O)N[C@@H](CCCNC(=N)N)C(=O)NCC(=O)NCCC(=O)N[C@@H](CCCCNC(=O)CN(CC(=O)NCCCC[C@H](NC(=O)CCNC(=O)CNC(=O)[C@H](CCCNC(=N)N)NC(=O)[C@H](CCC(N)=O)NC(=O)[C@@H]2CCCN2C(=O)[C@H](CCCNC(=N)N)NC(=O)[C@@H]2CSSC[C@H](NC(=O)[C@H](CO)NC(=O)[C@H](Cc3ccc(O)cc3)NC(=O)[C@@H](NC(=O)CNC(=O)CNC(C)=O)[C@@H](C)O)C(=O)N[C@@H](Cc3c[nH]cn3)C(=O)N[C@@H](Cc3ccccc3)C(=O)NCC(=O)N[C@@H](C)C(=O)N[C@@H](CC(C)C)C(=O)N[C@@H]([C@@H](C)O)C(=O)N[C@@H](Cc3c[nH]c4ccccc34)C(=O)N[C@@H](C(C)C)C(=O)N2)C(N)=O)C(=O)CCN)C(N)=O)NC(=O)[C@H](C(C)C)NC(=O)[C@H](Cc2c[nH]c3ccccc23)NC(=O)[C@H]([C@@H](C)O)NC(=O)[C@H](CC(C)C)NC(=O)[C@H](C)NC(=O)CNC(=O)[C@H](Cc2ccccc2)NC(=O)[C@H](Cc2c[nH]cn2)NC1=O)[C@@H](C)O — result for serum concentration: “not detected” (MSD immunoassay; BALB/c mice, healthy female, serum; subcutaneous, 0.08 mg/kg, 192 h, LLOQ 2.0 ng/mL).
Under “dose fraction in skim milk”, Clc1cc2c(cc1Cl)Oc1c(ccc(Cl)c1Cl)O2 is recorded as 5.2% (whole cow milk; 200 nM nominal).
For Cn1nc(NS(C)(=O)=O)c2c(Cl)ccc(-n3c([C@H](Cc4cc(F)cc(F)c4)NC(=O)Cn4nc(C(F)F)c5c4C(F)(F)[C@@H]4C[C@H]54)nc4nc(OCCC(F)(F)F)ccc4c3=O)c21, “drug-related adverse events” read 0% (item: blood triglycerides increased; human; 125 mg, powder in bottle).
For CN1CCN(S(=O)(=O)c2cc([N+](=O)[O-])ccc2N(CCOS(C)(=O)=O)CCOS(C)(=O)=O)CC1, the total protein was 59 g/L (naive NOD/SCID mice, pooled blood; intraperitoneal, 25 mg/kg, week 4).
For COc1ccc2c(c1)CN(C(=O)CCN1CCC(Cc3ccccc3)CC1)CC[S@@+]2[O-], “unbound plasma concentration” read 1420 ± 180 nM (female Beagle dogs, chronic AV block, plasma; intravenous, 3 mg/kg, end of 10 min infusion).
The freeze-thaw stability of O=c1nc(NO)ccn1[C@@H]1O[C@H](CO)[C@@H](O)[C@H]1O is reported as 90.4 ± 4.92% (rat maternal placenta dialysate; 25 ng/mL, low concentration, three cycles, added: molnupiravir 5 ng/mL).
O=C(O)CCCOc1ccc(F)cc1-c1cc(-c2ccccc2C(F)(F)F)n(-c2ccccc2)n1 gave an APTT of 18.7 s and 18.1 s and 16.7 s and 17.8 s and 16.8 s (female Crl:CD(SD) rats; intravenous, 25 µg/kg, 14 d).
CCc1ccc(CC/C=C/c2ccc3c(c2)C(=O)CC3)cc1 has a prothrombin time of 13.1 s (Sprague-Dawley rat, male, blood; oral, 30 mg/kg/day, 14 days).
For C[C@@H](NC(=O)N1C(=O)[C@H](Cc2ccnc(N)c2)[C@H]1C(=O)O)C1CCCCC1, “subjects with abnormal liver function” read 10% (healthy Chinese adult volunteers; continuous intravenous infusion, dose not given, 5.0 days, all doses pooled).
C=CC(=O)Nc1cc(Nc2nccc(Nc3cc(Cl)c(F)cc3C(C)(C)O)n2)c(OC)cc1N1CC[C@@H](N(C)C)C1 — result for “patients with diarrhoea”: 16.7% (human patients; oral, 50 mg, treatment-emergent adverse events).
COc1ncccc1-c1cnn2ccc(N3CCN(C(=O)OC(C)C)CC3)nc12 has a drug concentration of 300 nM (rat, CCI cold allodynia model, plasma; oral, 3 mg/kg, 240 min).
C[C@]1(O)C[C@@](N)(c2ccc(-c3nc4n(c3-c3ccccc3)COc3ccncc3-4)cc2)C1: “patients with Nausea TEAE” 16.7% (human, advanced or metastatic solid tumours; 20 mg once daily, phase I dose escalation).
Under “patients with headache”, O=C1Nc2cc3[nH]nc(-c4ccncc4)c3cc2CN1Cc1ccccc1 is recorded as 33% (CTCAE v4.03; advanced solid tumour patients; intravenous, 3.6 mg/kg, schedules 1/2).
Cn1ncc(-c2nc(N[C@H]3CC[C@H](N)CC3)ncc2Cl)c1CC1CC1 — result for “blood bilirubin increase incidence”: 6.7% (phase I dose escalation; human patients; dose not given, treatment-related grade 3 or higher).

Repeated from above:
Oc1ccc(CSCc2ccc(O)cc2)cc1 gave a body weight of 35.5 ± 1.01 g (ICR mice male; oral, 3000 mg/kg, day 8, acute toxicity).
CO[C@H]1C[C@@H]2CC[C@@H](C)[C@@](O)(O2)C(=O)C(=O)N2CCCC[C@H]2C(=O)O[C@H]([C@H](C)C[C@@H]2CC[C@@H](OC(=O)NCCOCCOCCOCCOCCOCCOCCOCCOCCC(=O)N3CCc4cc(Cn5nc(-c6ccc7oc(N)nc7c6)c6c(N)ncnc65)ccc4C3)[C@H](OC)C2)C[C@@H](O)[C@H](C)/C=C(\C)[C@@H](O)[C@@H](OC)C(=O)[C@H](C)C[C@H](C)/C=C/C=C/C=C/1C has a TRAE incidence of 75% (phase 1 dose escalation, item: mucositis; advanced solid tumour patients; intravenous, 16 mg weekly, any grade).
Under “T-wave abnormality incidence”, COc1cc2c(Oc3ccc4[nH]c(C)cc4c3F)ccnc2cc1OCC1(N)CC1 is recorded as 50% (paediatric refractory sarcoma patients; 10 mg).
Fc1ccc([C@@H]2CCNC[C@H]2COc2ccc3c(c2)OCO3)cc1: “List of Complaints score” 0 score (item: Freezing; healthy volunteers; oral, dose not given, given -1 h relative to LSD, added: LSD; direction not given).
